{"data": "Published values collected from several papers", "note": "A part holds a random share of what one study measured."}
{"data": "Study 1", "target": "Fragile X messenger ribonucleoprotein 1, C-terminal low-complexity region (Fmr1, Mus musculus, UniProt P35922)", "method": "RNA Bind-n-Seq", "molecule type": "RNA", "medium": "in vitro", "concentration": "200 nM", "notes": "whole 134-nt RNA, ends assumed", "with": "150 mM KCl", "relative to": "input library", "reading": "higher = stronger binding"}
{"Oligonucleotide": "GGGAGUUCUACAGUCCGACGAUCGUCCUGUGCUACACAUCGUAUGUACCGAAUCAAACCCCCAAACCCCCCCAAAUUUAAAAAAGUAUUAUGUUACGCCGUUCGGAUCUGCACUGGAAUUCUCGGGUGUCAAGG", "log2 enrichment": -0.157}
{"Oligonucleotide": "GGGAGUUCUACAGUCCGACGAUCCUCAAGUCCUGUGCUACACAUCGUAUGUACCGAAUCGGUUUGGAAAGGAAAGGAAAGUAUUAUGUUACGCCGUUCGGAUCUGCACUUCCAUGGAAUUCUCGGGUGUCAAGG", "log2 enrichment": -0.0274}
{"Oligonucleotide": "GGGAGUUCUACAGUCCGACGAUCUCGUUCCCCCCGCCACGAGAAGAAGAAGAAGGUCCGUAAAUACUGGGACGUGCCACCCCCAGGCUUUGAGCACAUCACCCCAAUGCAGUAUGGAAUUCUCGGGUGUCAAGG", "log2 enrichment": 0.299}
{"Oligonucleotide": "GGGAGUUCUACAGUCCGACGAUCACCAUGCAGGUGGGCAUCUUUGGGAAGUGGGGCAAUGGGGGGAUAGGGAGGGGGGUAACACUUUGGGAACAGGUGGUCCCAGGUCGUUUCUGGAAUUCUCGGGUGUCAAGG", "log2 enrichment": 0.72}
{"Oligonucleotide": "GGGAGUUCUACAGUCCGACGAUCUCCUGUGCUACACAUCGUAUGUACCGAAUCAAACCCAAAUUUUUUUAAAUUUUUUUAAAAAAGUAUUAUGUUACGCCGUUCGGAUCUGCAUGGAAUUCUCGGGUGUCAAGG", "log2 enrichment": 0.385}
{"Oligonucleotide": "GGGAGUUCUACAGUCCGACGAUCUCAAGUCCUGUGCUACACAUCGUAUGUACCGAAUCGGGCCCGGGCCCGGCCCGGGAAAGUAUUAUGUUACGCCGUUCGGAUCUGCACUUCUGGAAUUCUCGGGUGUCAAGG", "log2 enrichment": -0.891}
{"Oligonucleotide": "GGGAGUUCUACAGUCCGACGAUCUCCUGUGCUACACAUCGUAUGUACCGAAUCGGAAAAAAAGGAAAAAAAGGGAAAAAAAGGAAAGUAUUAUGUUACGCCGUUCGGAUCUGCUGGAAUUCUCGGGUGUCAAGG", "log2 enrichment": -0.171}
{"Oligonucleotide": "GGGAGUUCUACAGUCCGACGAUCUUAGGCACUUGUUGGGCUCAUCACCGUUGUGUGGAGUGGUCACUAGGAGUAUGCCAGAUGGAAGAACCAUUGUUAGUGAACGUGGACAAAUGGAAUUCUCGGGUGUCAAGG", "log2 enrichment": -1.89}
{"Oligonucleotide": "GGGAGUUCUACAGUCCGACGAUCCAAGUCCUGUGCUACACAUCGUAUGUACCGAAUCGGGGAAAGGGGAAAGGAAAGGGAAAGUAUUAUGUUACGCCGUUCGGAUCUGCACUUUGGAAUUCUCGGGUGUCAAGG", "log2 enrichment": 0.0509}
{"Oligonucleotide": "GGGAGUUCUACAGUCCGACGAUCUGGCCCUGGUGGCAUGCGGGGAGGAAGAGGUGGCCUCAUGGAUCGUGGUGGUCCCGGUGGAAUGUUCAGAGGUAGCCGUGGUGGAGACAGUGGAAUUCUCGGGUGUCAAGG", "log2 enrichment": 0.0397}
{"data": "Study 2", "target": "RNA binding protein fox-1 homolog 2, RRM domain, GST-SBP tag (RBFOX2, Homo sapiens, UniProt O43251-10, residues 100-194)", "method": "RNA Bind-n-Seq", "molecule type": "RNA", "medium": "in vitro", "concentration": "365 nM", "notes": "natural RNA segment, single round, ends assumed", "relative to": "no-protein control", "reading": "higher = stronger binding", "Construct (chain)": "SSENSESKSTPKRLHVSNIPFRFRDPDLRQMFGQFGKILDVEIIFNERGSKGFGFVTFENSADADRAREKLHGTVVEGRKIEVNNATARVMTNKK"}
{"Oligonucleotide": "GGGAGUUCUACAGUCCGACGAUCGUGCAUAGUAAGACUGCCUGGCUAAAUUAGGCCUCACUGGCGAUAGAACAGACUUACUGAAGUUUAGGUAUAGUGAGCCACACUCCACUGCCAAGGUAGAGAACUGUGAGUGGAAUUCUCGGGUGCCAA", "RBNS enrichment (R)": 0.352}
{"Oligonucleotide": "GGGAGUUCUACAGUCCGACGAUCUACACACACACACACUAAAAUAACAUUUAAAAAUAUGUGCCAAAUUAUAUUUGUUCGGGUGCCACCUUCCACCAGCUUACCACUACGGUAGAACUGUCAAAUUCAUCUCCUGGAAUUCUCGGGUGCCAA", "RBNS enrichment (R)": 0.379}
{"Oligonucleotide": "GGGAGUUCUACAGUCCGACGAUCAUAGGUAUGUAAUGUGGAACCGACACUGGGGAGAUCUGAAGGAAGAAGGCAUGAGGCACUCUCUGAUGGCUUGCUAGUCAAAACUGGAAGGAUUUUCCUUAGGACAGGUGUGGAAUUCUCGGGUGCCAA", "RBNS enrichment (R)": 2.65}
{"Oligonucleotide": "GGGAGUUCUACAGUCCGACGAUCAUGCAUGACUAAAAAGGCUUGAAGUUGCUUGUGAGCAAGAAGCUUUUUAUGCUGCUUUCUUACAUAGUUUCUCUUCAUUUUCACUUAACUCUGAAGACAACCAAAAGAACUGGAAUUCUCGGGUGCCAA", "RBNS enrichment (R)": 5.23}
{"Oligonucleotide": "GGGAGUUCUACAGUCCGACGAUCAUGUGUAUUUCCAAUUUGGUCUUCAAUUCAAGAGAUGCUUCAUAAAACACUUAUAGCCUUAAACCAUUCAAGGGCUAAUUAAAAAAAUAGUUAUGAAAUCUUAGCCACAAUGGAAUUCUCGGGUGCCAA", "RBNS enrichment (R)": 0.583}
{"Oligonucleotide": "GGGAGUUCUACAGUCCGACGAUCUAGCCUGUAUGAAAUCACUAGUCCUUAUUUUUAAAGGUCUAUGGUUUCUUGGAAGUAGUUUGAUUGUUGAGAGAGACCUUUGAUCUGCAGUGUAAAUCUACCAGUCAUGGUGGAAUUCUCGGGUGCCAA", "RBNS enrichment (R)": 0.603}
{"Oligonucleotide": "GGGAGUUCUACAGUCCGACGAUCAAAAGAAAAAAAUAUCCCAAGCCCACACCUAUGCCUCAGAAAGUCAGCAUGUGUCCUGAAGACGUUCAUAGAUUUAUAGGAAAUAAAGCCAAAUGUAGCUCAUACCUCUUUGGAAUUCUCGGGUGCCAA", "RBNS enrichment (R)": 12}
{"Oligonucleotide": "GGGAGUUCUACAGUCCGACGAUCGCUGGGGCCCCGCCUCCUUUCUGUUUUAUUUUUGAGGAAAUAAAAUAACCAAGUGCUAAAUCUUGUAGCUCUGGGGCUGCCUCGGUUUUCCUAAGGAGCCAGGGGUUCUGUGGAAUUCUCGGGUGCCAA", "RBNS enrichment (R)": 0.48}
{"Oligonucleotide": "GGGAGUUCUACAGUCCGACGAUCGGGUCCGGGAUUGGGAAUCCGCCCAUCUGGGGGCCUCUUCUGCUUUCUCGGGAAUUUUCAUCUAGGAUUUUAAGGGAAGGGGAAGGAUAGGGUGAUGUUCCGAAGGUGAGUGGAAUUCUCGGGUGCCAA", "RBNS enrichment (R)": 0.728}
{"Oligonucleotide": "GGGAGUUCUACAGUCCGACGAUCGCACACAUCCAUUGGACUAUGCAAAUCAAUUUCUACUAGCAGCACUGAGCAACUGGGCACGUGCUAGUACGCACCCCCUCCUACUCUAACUGUGCUAGCUCUUGGGUUGAUGGAAUUCUCGGGUGCCAA", "RBNS enrichment (R)": 0.498}
{"Oligonucleotide": "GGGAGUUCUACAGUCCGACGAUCCAGUUCUCAAAUGUCAAUGUAGAUAAGAGUCAUCUAGUAGAGAACUCAUCAGAGUGCGGAUUGCCAAGACCCUUCUCCAGAGAUUAUGGGGUUGGGGGUGGAGGUCUAGAUGGAAUUCUCGGGUGCCAA", "RBNS enrichment (R)": 0.788}
{"Oligonucleotide": "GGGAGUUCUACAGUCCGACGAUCUGUUUUUUAGAAAUAUGCCCAGAGUAAGAAGCUGUGUUGGAGCCUAAGUCCUGCAAGCUGGGUCCUGGGGGCGACCGACCUGCUUUACUUGAUGGAUAAGUUACAGAGUUUGGAAUUCUCGGGUGCCAA", "RBNS enrichment (R)": 0.443}
{"data": "Study 3", "target": "Histone acetyltransferase KAT6A, both winged helices, GST fusion (KAT6A, Homo sapiens, UniProt Q92794, residues 1-181)", "method": "protein binding microarray", "molecule type": "double-stranded DNA, one strand shown", "medium": "in vitro", "concentration": "not given", "notes": "8-mer, flanks averaged, mean of 2 arrays, mostly near background", "relative to": "not given", "reading": "higher = stronger binding", "Construct (chain)": "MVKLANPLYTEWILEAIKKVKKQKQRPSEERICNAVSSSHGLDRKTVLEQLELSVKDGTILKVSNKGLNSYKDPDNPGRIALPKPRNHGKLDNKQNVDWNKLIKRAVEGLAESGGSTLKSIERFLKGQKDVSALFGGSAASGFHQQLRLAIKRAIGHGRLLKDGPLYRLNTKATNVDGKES"}
{"Oligonucleotide": "CTCAAAGC", "E-score": -0.00259}
{"Oligonucleotide": "CTCGACTC", "E-score": -0.102}
{"Oligonucleotide": "AAGGATGT", "E-score": -0.116}
{"Oligonucleotide": "GCCTTCAC", "E-score": 0.0992}
{"Oligonucleotide": "ACGGCTCC", "E-score": 0.215}
{"Oligonucleotide": "CTCGGTCC", "E-score": -0.0554}
{"Oligonucleotide": "AAGCTTGT", "E-score": -0.037}
{"Oligonucleotide": "AGCCAGCT", "E-score": -0.281}
{"Oligonucleotide": "GGGCTTAA", "E-score": -0.117}
{"Oligonucleotide": "CCTGCGAC", "E-score": -0.0174}
{"Oligonucleotide": "ATCATGTG", "E-score": -0.114}
{"Oligonucleotide": "CATAGAGA", "E-score": -0.157}
{"Oligonucleotide": "ACATGCGT", "E-score": -0.00275}
{"Oligonucleotide": "ATCAAGCA", "E-score": -0.114}
{"Oligonucleotide": "CGCGTGCA", "E-score": 0.225}
{"Oligonucleotide": "AGGCCTAG", "E-score": -0.176}
{"Oligonucleotide": "ATCTCCCA", "E-score": -0.0934}
{"Oligonucleotide": "ACAAGAAG", "E-score": -0.0973}
{"Oligonucleotide": "ATTCTGGG", "E-score": -0.196}
{"Oligonucleotide": "GCCTTATA", "E-score": -0.0714}
{"Oligonucleotide": "CACGTACG", "E-score": 0.108}
{"Oligonucleotide": "GCGAACTA", "E-score": -0.0486}
{"Oligonucleotide": "AACATGAG", "E-score": 0.0306}
{"Oligonucleotide": "CAGATATC", "E-score": -0.0308}
{"Oligonucleotide": "ATGCAGCA", "E-score": -0.106}
{"data": "Study 4", "target": "Prothrombin, mature alpha-thrombin (F2, Homo sapiens, UniProt P00734)", "method": "aptamer microarray, sandwich", "molecule type": "DNA with 2'F-ANA", "medium": "in vitro", "concentration": "200 nM", "notes": "whole 15-mer aptamer, many near background", "with": "Cy3 exosite-II aptamer, 400 nM", "reading": "higher = stronger binding", "oligonucleotide": "GGTTGGTGTGGTTGG"}
{"Modification": "2'F-ANA at 2 3 5 8 9", "mean fluorescence intensity [a.u.]": 135}
{"Modification": "2'F-ANA at 2 3 5 9 11 12 13 14", "mean fluorescence intensity [a.u.]": 73.4}
{"Modification": "2'F-ANA at 1 2 3 4 5 8 9 10 12 14", "mean fluorescence intensity [a.u.]": 48}
{"Modification": "2'F-ANA at 4 6 7 8 15", "mean fluorescence intensity [a.u.]": 342}
{"Modification": "2'F-ANA at 4 6 7 8 9 13 14 15", "mean fluorescence intensity [a.u.]": 76.8}
{"Modification": "2'F-ANA at 2 4 6 8 11 13 14 15", "mean fluorescence intensity [a.u.]": 71.1}
{"Modification": "2'F-ANA at 1 2 3 7 8 9 10 13 14", "mean fluorescence intensity [a.u.]": 52.5}
{"Modification": "2'F-ANA at 2 3 4 5 8 9 12", "mean fluorescence intensity [a.u.]": 324}
{"Modification": "2'F-ANA at 2 3 4 6 7 9 10 13", "mean fluorescence intensity [a.u.]": 218}
{"Modification": "2'F-ANA at 1 2 12 13", "mean fluorescence intensity [a.u.]": 346}
{"Modification": "2'F-ANA at 1 2 3 4 6 10 12 13", "mean fluorescence intensity [a.u.]": 69.7}
{"Modification": "2'F-ANA at 2 3 4 5 8 9 10 11 13 14 15", "mean fluorescence intensity [a.u.]": 51.4}
{"Modification": "2'F-ANA at 1 2 3 5 6 7 10 11", "mean fluorescence intensity [a.u.]": 50}
{"Modification": "2'F-ANA at 3 4 10 13 14 15", "mean fluorescence intensity [a.u.]": 206}
{"Modification": "2'F-ANA at 1 3 5 6 8 10 11 15", "mean fluorescence intensity [a.u.]": 51.7}
{"Modification": "2'F-ANA at 4 8 10 12 14", "mean fluorescence intensity [a.u.]": 61.5}
{"Modification": "2'F-ANA at 1 2 4 9 12 13 15", "mean fluorescence intensity [a.u.]": 168}
{"Modification": "2'F-ANA at 2 3 6 8 10 13 14", "mean fluorescence intensity [a.u.]": 256}
